# Results of several laboratories.
# Parts stem from different laboratories: compare values within a part only. Positions count from the first letter of the parent shown.

# Sample 1 — technique: RNA Bind-n-Seq; molecule type: RNA; sample: in vitro; concentration: 365 nM; reference: no-protein control; direction: higher = stronger binding
# Target: RNA binding protein fox-1 homolog 2, RRM domain, GST-SBP tag (RBFOX2, Homo sapiens, UniProt O43251-10, residues 100-194)
# Setting: natural RNA segment, single round, ends assumed
# Construct (chain): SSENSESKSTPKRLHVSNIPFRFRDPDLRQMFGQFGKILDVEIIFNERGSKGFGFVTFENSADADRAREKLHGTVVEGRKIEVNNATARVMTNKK
Strand,RBNS enrichment (R)
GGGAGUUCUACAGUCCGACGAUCUAAGAGUCACCAAACACGUGGAUAUUUUUGGUCUGAUCCUACAGUAGCCGGUUAUCUAGACCAGUAAGUGGAGUUUUGGACAUGCUGCUGCUGUCAACUCACUGGCUGAAUGGAAUUCUCGGGUGCCAA,0.447
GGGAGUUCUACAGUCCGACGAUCGUAAUUCUUUCUUGUGGGGGCCGUCUUGGGUACUGUAGGAAGCUGAGCAGCAUUCCUGGCCUCCAUCCACAAGAUACCUGUAGCAGUGUCCUGCCAACGGUAACAAUCAAUGGAAUUCUCGGGUGCCAA,0.598
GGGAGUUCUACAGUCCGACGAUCCCUGUGUUACAAUUUUUCGUUUGGUCUUAGGUCUUCCCAUGGCUCCCUCUCUCCUGGACUGGUUAUCUUGUUAUUAUUGUUAAUAAUAAUUAUUAUUAUUAUUUCCCCCUUGGAAUUCUCGGGUGCCAA,0.647
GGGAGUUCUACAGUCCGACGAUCAAGUUGGAUUAUAGAUUAUAACGUAGAGUUGGUUUGUAGGGCCAAAUAAUCAGAGGACAUGCAAUAAGGCAAGGCUGAGUGGAAAAUAGAGGUUCAAGGGCCUAGGUAGGUGGAAUUCUCGGGUGCCAA,1.22
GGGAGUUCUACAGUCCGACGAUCGCCAAAGAAUCUAGGAAAUUAGUUGUAUUUUGUGCAAGCUAAUUUAAAAACAUGAUGGGCUGUUUUAAGACCAGAGUGGAAAUUCAUGAGAGGAACUAUACUACCAAAAGUGGAAUUCUCGGGUGCCAA,0.326
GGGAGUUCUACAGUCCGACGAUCGAAGUCAGAGUAUCAUCUAAAGUUAAGUAGACCCAAGCAAGACAGGGUCUUAAGGCCUGGGUUUAAGUGGGGCUUCUUGUCUGGGGUACCAAGAUAGGGAAAGAAAGAAAUGGAAUUCUCGGGUGCCAA,0.256
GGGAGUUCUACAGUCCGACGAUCAGAGGGGCCUAUAGGUCCUUCACUGUUCCCUCCUGUGUGUUGGAGUUCUUUAGUUAGCAGUUCAGGCUGGUUGGACAGGUUUGAAUCAAAUUGUACUUUGUUCCAUUGUUUGGAAUUCUCGGGUGCCAA,1.09
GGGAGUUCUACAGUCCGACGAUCACUUGGUACCAUCCCUGGGCUCUGCUGGCGAGACGAAACAGCUGUAGAGAUGAAAACAGGCUGCAGAGGCUGGCACAGCCUGGCCGGCUUUUCUCCAUCUGGGGACAGUCUGGAAUUCUCGGGUGCCAA,0.542
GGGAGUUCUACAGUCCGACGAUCGUCCCCUGGGGCAUCUCUGUCCCCUCCACCUGCCCAAGACCCAACUCUAGGAUGAAGGCCUUGAAUAUCGAUCGCUGCCAGUCCCUAAUAAGACUUUCCCUGCCAACCAGUGGAAUUCUCGGGUGCCAA,0.277
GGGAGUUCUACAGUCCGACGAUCUAAUUGCCGCAUGGAUCCCACUGUGCCCUCUUGUUCUGUGCAAGUCUGUCCUGUCUGGGCACUAACCUUGGUCCCAUGCAUGUUUAUGUUCUGGGUGGGGCUUUGCCUCUUGGAAUUCUCGGGUGCCAA,17.8
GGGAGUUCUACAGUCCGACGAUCAUAAUUGGCGGCUGUAACUACCUUCACGUGCUCCUCUUAUACACAGACUCUCCAGGACUGAGGACAGAGCUGCUCUUCUUCUUCUACGUUACUGUGGCCCUCUUGUCUGGUGGAAUUCUCGGGUGCCAA,0.355
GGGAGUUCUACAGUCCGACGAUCAUAUUUGAUAGACUGCUUUCAGAAAACCCUUAUCAACAAGUGUACAAUACUUAUCUAAAACUAUACAUUUAGAAUGGAGCAGUUUAAUACUAGAUCUCAGAAGUUUUGAAUGGAAUUCUCGGGUGCCAA,0.491

# Sample 2 — technique: aptamer microarray, sandwich; molecule type: DNA with 2'F-ANA; sample: in vitro; concentration: 200 nM; with: Cy3 exosite-II aptamer, 400 nM; direction: higher = stronger binding; strand: GGTTGGTGTGGTTGG
# Target: Prothrombin, mature alpha-thrombin (F2, Homo sapiens, UniProt P00734)
# Setting: whole 15-mer aptamer, many near background
Modification,mean fluorescence intensity [a.u.]
2'F-ANA at 1 4 7 8 10 11 14,71
2'F-ANA at 2 3 8 10 12 13 14 15,289
2'F-ANA at 2 6 8 10 12 13,137
2'F-ANA at 3 4 12 15,1060
2'F-ANA at 1 2 4 7 10 11 15,53.9
2'F-ANA at 2 3 8 9 12 13 15,870
2'F-ANA at 1 2 3 4 5 8 15,62.1
2'F-ANA at 2 3 4 5 6 7 8 12 14,169
2'F-ANA at 1 2 4 5 10 11 12 14,44.9
2'F-ANA at 1 4 5 12 13 15,75.1
2'F-ANA at 1 3 7 9 11 12 13,377
2'F-ANA at 2 5 9 10 12 14 15,45.5
2'F-ANA at 1 2 4 6 14,48.4
2'F-ANA at 2 4 5 6 7 8 9 13 14 15,49.4
2'F-ANA at 3 6 7 8 11 12,1160
2'F-ANA at 4 5 6 9 12 15,128
2'F-ANA at 1 5 8 9 10 11 13 14,50.2
2'F-ANA at 2 4 5 7 9 10 11 12 15,51
2'F-ANA at 4 5 6 7 8 12 13 14 15,48.3
2'F-ANA at 1 2 3 6 9 11 13 15,122

# Sample 3 — technique: universal PBM; molecule type: double-stranded DNA, one strand shown; sample: in vitro; concentration: not given; direction: higher = stronger binding
# Target: Sal-like protein 4, full length isoform B (SALL4, Homo sapiens, UniProt Q9UJQ4-2, residues 1-616)
# Setting: 8-mer, flanks averaged, mean of replicates
# Target sequence (chain): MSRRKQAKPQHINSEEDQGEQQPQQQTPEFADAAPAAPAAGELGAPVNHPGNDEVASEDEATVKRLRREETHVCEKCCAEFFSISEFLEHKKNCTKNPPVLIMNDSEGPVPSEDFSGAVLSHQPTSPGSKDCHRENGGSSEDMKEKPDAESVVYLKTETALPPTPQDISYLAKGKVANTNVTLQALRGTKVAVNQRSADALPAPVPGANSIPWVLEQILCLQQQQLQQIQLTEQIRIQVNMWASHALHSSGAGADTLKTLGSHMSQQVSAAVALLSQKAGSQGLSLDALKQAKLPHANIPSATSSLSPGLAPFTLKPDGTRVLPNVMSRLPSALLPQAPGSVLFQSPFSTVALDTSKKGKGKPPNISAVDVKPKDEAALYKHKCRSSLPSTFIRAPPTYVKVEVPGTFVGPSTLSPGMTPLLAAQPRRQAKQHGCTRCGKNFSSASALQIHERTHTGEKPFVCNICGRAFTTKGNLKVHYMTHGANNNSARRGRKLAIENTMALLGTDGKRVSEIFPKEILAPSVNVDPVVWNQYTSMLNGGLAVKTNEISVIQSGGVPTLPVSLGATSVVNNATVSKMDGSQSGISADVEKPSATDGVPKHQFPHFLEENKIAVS
Strand,E-score
CGGTTCGC,-0.273
AGTGCCAA,0.0644
CCAAATGC,-0.133
AACACATG,0.196
GACGAGAA,0.129
AACAGTGC,0.00505
CGTTCCTA,0.0467
ATTTGTTA,0.254
TGCAGGCA,-0.0529
AAAACATG,0.144
ACTGACGA,0.0432
CATACGGC,-0.0234
TACTACGA,0.151
TATAATGA,0.323
CAGTCGCC,-0.198
ATTTTGTG,0.287
GCCGTCAC,-0.119
GAATGAAC,0.112
TACTGAGA,-0.168
ATCGGCGC,-0.272
CACCATCA,0.0304
GTTTGAAA,0.173
AAAGATTA,0.289
GACCGACA,-0.193
GTAAACAC,0.0921

# Sample 4 — target: CEP164, C-terminal peptide (human); technique: DHFR complementation, deep sequencing; sample: yeast; reference: wild type; direction: higher = weaker binding
# Setting: single substitutions, model-inferred values
# Starting sequence: PDZK1, PDZ domain 2 (human); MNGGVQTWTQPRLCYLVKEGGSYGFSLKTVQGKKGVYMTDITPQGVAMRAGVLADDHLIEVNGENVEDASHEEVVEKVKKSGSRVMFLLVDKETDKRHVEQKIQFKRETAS; partner HNRVKVYRF
Substitution,binding free energy change [kcal/mol]
E72V,0.402
G4E,0.0227
M38D,2.3
E64H,0.171
R84L,0.695
Q104L,-0.121
D68M,0.0462
D55M,0.572
K92N,0.134
Q44M,0.0267
E67G,0.427
L53E,0.369
T39W,0.198
L58T,0.217
Q104M,-0.0718
G51N,0.747
R107A,-0.229
P43I,0.373

# Sample 5 — target: CCND3, cyclin fold, Cln2 fusion (human); technique: yeast growth competition, sequencing; sample: yeast; setting: weak parent motif; reference: not given; direction: higher = stronger binding
# Starting sequence: PKN2 docking peptide (human); VSAVQKLDFSDTM
Substitution,normalised enrichment score
T12K,0.139
T12H,0.156
F9N,0.149
D8N,0.136
T12A,0.149
D11M,0.0925
M13P,0.00917
D8S,0.147
D8V,0.118
S10R,0.129
V1F,0.142
D11E,0.107
S2R,0.192
F9T,0.0702
K6H,0.11
S2H,0.072
V4K,0.02
V1K,0.139

# Sample 6 — technique: protein binding microarray; molecule type: double-stranded DNA, one strand shown; sample: in vitro; concentration: not given; reference: not given; direction: higher = stronger binding
# Target: Histone acetyltransferase KAT6A, winged helix 2, GST fusion (KAT6A, Homo sapiens, UniProt Q92794, residues 85-181)
# Setting: 8-mer, flanks averaged, mean of 2 arrays, mostly near background
# Residues (chain): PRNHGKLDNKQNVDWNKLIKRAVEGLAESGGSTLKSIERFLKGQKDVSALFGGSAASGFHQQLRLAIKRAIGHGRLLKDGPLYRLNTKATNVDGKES
Strand,E-score
TAGCAATA,0.049
ATGTAAGG,-0.247
ACCCACCA,-0.0601
ATCTCACA,-0.0377
CGGTAGAG,-0.159
ATGCTCTC,-0.0545
CCAGATAA,0.00671
AGGAAATC,0.103
CAGAAGAA,-0.0315
AGTTCCCA,0.175
CCAAGGAC,-0.00999
CTGAATGC,0.0575
CATAAGAC,-0.22
AAATAAGA,-0.0433
CCGAACTC,0.147
GCGACCAA,0.11
AGTGGTAA,-0.043
ACGTGCTC,-0.0686
CGATGTAG,-0.0213
GCCGTGAC,-0.023
GTGAGCTA,-0.0516
ATCAGATG,0.0887
TGATCCAA,-0.0509
ACTTGCAT,-0.0783
GGTTTAAA,0.0643
